Assay results pooled from the literature.
Numbered parts are unrelated; each lists some results of a single study.
Chain of UniProt P54760 (whole entry, looked up): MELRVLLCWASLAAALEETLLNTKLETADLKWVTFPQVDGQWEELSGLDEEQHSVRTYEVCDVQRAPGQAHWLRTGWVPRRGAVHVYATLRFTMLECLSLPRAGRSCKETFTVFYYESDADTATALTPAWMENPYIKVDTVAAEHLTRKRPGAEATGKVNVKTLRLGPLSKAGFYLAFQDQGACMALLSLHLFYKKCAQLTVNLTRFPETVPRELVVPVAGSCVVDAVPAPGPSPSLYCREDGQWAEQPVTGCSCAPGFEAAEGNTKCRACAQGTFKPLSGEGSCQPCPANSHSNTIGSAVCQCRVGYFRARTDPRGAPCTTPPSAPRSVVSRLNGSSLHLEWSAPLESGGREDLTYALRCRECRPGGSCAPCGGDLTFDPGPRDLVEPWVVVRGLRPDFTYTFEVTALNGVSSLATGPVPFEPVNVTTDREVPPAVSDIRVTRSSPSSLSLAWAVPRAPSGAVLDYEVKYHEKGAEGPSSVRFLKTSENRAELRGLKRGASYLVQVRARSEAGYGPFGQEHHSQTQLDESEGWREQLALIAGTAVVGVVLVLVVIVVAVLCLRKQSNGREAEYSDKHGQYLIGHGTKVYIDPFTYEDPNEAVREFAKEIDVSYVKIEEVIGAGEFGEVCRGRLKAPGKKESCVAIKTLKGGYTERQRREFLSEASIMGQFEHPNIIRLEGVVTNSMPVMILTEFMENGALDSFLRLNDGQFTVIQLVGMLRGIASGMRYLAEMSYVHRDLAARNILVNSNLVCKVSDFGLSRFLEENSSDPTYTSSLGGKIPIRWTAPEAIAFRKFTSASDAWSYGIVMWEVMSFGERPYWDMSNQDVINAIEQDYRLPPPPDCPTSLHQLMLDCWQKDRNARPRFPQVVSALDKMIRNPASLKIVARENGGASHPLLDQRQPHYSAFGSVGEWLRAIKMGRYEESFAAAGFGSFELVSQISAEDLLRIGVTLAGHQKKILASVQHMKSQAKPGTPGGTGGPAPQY
Chain of UniProt Q16816 (whole entry, looked up): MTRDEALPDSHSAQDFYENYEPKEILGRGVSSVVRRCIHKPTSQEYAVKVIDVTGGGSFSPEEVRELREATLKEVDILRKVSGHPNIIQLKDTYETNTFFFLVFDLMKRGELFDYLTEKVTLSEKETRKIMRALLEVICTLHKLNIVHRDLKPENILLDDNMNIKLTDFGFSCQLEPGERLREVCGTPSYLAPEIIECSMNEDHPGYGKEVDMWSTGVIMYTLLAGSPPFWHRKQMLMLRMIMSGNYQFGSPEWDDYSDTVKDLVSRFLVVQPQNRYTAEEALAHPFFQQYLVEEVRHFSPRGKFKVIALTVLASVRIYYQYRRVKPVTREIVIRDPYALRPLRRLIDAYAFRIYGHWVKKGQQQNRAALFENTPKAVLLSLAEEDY
Chain of UniProt P42336 (whole entry, unmodified, looked up): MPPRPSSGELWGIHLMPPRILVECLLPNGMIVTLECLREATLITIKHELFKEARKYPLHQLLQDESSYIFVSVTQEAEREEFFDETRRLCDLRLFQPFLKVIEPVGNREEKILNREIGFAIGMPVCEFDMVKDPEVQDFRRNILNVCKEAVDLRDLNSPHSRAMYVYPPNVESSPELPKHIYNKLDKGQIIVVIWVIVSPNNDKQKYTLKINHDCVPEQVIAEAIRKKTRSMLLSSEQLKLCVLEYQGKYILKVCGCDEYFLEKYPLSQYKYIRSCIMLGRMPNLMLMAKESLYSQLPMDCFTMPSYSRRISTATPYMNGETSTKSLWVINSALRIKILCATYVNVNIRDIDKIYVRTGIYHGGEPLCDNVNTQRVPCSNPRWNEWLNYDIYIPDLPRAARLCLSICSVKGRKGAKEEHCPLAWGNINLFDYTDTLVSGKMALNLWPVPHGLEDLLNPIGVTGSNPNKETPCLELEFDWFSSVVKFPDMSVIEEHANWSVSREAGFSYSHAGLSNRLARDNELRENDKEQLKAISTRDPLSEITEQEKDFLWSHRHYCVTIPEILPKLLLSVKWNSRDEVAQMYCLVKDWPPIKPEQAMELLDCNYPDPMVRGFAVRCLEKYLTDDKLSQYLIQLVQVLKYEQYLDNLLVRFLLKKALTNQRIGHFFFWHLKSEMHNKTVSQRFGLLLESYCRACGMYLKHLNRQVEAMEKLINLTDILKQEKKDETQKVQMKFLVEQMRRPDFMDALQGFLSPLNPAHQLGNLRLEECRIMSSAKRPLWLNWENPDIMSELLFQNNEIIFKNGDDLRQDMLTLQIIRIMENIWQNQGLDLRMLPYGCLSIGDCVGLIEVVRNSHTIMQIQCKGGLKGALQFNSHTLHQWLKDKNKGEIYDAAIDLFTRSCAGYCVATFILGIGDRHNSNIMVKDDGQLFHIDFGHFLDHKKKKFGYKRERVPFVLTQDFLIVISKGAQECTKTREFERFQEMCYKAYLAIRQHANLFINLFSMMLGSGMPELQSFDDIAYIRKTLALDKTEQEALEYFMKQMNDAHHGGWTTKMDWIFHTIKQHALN
Chain of UniProt O75716 (whole entry, looked up): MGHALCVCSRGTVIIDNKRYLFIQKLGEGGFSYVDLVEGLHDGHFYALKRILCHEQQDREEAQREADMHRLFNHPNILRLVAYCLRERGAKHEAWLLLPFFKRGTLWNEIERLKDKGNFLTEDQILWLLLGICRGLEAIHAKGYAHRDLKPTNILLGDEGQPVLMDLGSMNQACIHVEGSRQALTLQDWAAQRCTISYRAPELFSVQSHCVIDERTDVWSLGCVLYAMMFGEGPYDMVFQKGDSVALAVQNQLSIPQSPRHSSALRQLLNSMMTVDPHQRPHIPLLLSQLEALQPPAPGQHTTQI
Chain of UniProt O43781 (whole entry, looked up): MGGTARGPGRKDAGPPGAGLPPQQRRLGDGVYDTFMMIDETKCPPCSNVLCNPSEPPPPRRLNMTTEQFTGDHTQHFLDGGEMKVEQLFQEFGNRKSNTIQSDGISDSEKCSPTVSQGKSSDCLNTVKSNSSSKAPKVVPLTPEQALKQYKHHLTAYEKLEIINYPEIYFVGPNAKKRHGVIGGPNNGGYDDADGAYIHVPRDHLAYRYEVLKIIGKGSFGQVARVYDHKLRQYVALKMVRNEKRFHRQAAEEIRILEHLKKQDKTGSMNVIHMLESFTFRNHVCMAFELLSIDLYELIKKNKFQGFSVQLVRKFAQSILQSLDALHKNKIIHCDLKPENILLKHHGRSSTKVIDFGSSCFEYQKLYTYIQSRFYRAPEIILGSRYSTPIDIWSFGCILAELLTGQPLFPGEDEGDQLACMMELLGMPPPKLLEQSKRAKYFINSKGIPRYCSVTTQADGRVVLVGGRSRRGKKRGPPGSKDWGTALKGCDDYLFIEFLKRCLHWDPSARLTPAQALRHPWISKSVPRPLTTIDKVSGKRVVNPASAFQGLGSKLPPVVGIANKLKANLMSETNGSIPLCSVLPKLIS
Chain of UniProt Q9H2X6 (whole entry, looked up): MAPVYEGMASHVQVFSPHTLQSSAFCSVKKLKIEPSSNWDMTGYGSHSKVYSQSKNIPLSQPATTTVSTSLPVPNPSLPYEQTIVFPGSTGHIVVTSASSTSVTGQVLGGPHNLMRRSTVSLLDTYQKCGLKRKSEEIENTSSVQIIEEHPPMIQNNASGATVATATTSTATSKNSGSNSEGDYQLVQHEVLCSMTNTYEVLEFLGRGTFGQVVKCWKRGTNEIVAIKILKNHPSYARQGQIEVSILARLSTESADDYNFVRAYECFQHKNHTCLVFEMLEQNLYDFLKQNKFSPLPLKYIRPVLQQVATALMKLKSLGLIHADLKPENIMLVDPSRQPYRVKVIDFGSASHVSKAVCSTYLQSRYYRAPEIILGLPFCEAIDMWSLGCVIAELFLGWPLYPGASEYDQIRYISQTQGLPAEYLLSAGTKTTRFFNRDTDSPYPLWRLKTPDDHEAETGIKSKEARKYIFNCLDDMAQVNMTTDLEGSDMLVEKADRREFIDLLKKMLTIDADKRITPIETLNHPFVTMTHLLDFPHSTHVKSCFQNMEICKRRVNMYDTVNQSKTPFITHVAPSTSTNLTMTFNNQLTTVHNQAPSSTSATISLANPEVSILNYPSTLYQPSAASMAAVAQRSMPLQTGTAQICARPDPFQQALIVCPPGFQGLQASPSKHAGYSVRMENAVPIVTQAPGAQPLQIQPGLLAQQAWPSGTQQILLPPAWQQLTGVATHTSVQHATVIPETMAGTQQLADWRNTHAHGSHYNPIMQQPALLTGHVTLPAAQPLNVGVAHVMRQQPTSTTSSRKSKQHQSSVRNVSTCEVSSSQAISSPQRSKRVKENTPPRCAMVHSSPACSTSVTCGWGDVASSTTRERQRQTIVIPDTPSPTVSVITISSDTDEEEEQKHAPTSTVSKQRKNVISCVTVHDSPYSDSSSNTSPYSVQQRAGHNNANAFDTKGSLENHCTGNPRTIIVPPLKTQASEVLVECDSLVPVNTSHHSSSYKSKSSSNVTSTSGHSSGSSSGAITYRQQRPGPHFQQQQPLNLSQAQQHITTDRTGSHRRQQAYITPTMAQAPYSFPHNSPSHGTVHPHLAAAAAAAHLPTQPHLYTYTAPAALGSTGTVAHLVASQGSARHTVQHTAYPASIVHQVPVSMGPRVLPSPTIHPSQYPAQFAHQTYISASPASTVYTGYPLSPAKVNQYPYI
Chain of UniProt Q9UEE5 (whole entry, looked up): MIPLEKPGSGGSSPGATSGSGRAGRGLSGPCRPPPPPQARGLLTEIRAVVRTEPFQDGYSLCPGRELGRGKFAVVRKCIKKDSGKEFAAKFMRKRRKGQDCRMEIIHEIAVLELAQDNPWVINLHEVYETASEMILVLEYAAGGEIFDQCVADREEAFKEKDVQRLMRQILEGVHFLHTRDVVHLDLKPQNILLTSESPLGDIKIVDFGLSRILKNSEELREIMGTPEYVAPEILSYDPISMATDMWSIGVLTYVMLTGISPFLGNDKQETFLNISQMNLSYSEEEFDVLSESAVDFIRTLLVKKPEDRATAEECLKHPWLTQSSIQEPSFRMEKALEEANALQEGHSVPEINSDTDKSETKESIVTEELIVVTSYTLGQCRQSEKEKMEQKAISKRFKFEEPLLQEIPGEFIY

Series 1 — observed: enzyme activity; action: inhibitor; tested at: 0.5 µM; baseline: control
SMILES: Cc1cn(-c2cc(NC(=O)c3ccc(C)c(Nc4nccc(-c5cccnc5)n4)c3)cc(C(F)(F)F)c2)cn1
| target | remaining activity [%] |
| --- | --- |
| EPHB4 (Homo sapiens, UniProt P54760) | 11.4 |
| MAP4K4 (Homo sapiens, UniProt O95819) | 106 |
| HIPK4 (Homo sapiens, UniProt Q8NE63) | 105 |
| DYRK3 (Homo sapiens, UniProt O43781) | 91.4 |
| HIPK2 (Homo sapiens, UniProt Q9H2X6) | 92.1 |
| EPHA4 (Homo sapiens, UniProt P54764) | 12 |
| STK16 (Homo sapiens, UniProt O75716) | 93.4 |
| PHKG1 (Homo sapiens, UniProt Q16816) | 91 |
| RPS6KA5 (Homo sapiens, UniProt O75582) | 95.6 |
| AXL (Homo sapiens, UniProt P30530) | 64.8 |
| STK17A (Homo sapiens, UniProt Q9UEE5) | 98.9 |

Series 2 — observed: cell-free assay; technique: competition with immobilised ligand; tested at: 1 µM
SMILES: Cc1nccc(COC(=O)N2C[C@@H]3[C@@H](CNC(=O)c4ccc5[nH]nnc5c4)[C@@H]3C2)n1
| target | remaining binding |
| --- | --- |
| PHKG1 (Homo sapiens, UniProt Q16816) | 100% |
| EGFR (Homo sapiens, UniProt P00533) | 82% |
| Tyrosine-protein kinase JAK1, JH1 (JAK1, Homo sapiens, UniProt P23458) | 92% |
| PIK3CA (Homo sapiens, UniProt P42336, C420R) | 97% |
| PIK3CA (Homo sapiens, UniProt P42336) | 92% |
| MARK2 (Homo sapiens, UniProt Q7KZI7) | 97% |
| Tyrosine-protein kinase JAK2, JH1 (JAK2, Homo sapiens, UniProt O60674) | 93% |
| PRKD2 (Homo sapiens, UniProt Q9BZL6) | 92% |
| EPHB4 (Homo sapiens, UniProt P54760) | 100% |

Series 3 — technique: aptamer microarray, sandwich; molecule type: DNA with 2'F-ANA; matrix: in vitro; tested at: 200 nM; with: Cy3 exosite-II aptamer, 400 nM; direction: higher = stronger binding; oligonucleotide: GGTTGGTGTGGTTGG
Target: Prothrombin, mature alpha-thrombin (F2, Homo sapiens, UniProt P00734)
Setting: whole 15-mer aptamer, many near background
| Modification | mean fluorescence intensity |
| --- | --- |
| 2'F-ANA at 1 5 7 8 9 10 11 13 | 43.7 a.u. |
| 2'F-ANA at 3 4 5 6 7 10 12 | 54.2 a.u. |
| 2'F-ANA at 2 4 9 10 12 15 | 143 a.u. |
| 2'F-ANA at 1 2 4 5 6 7 9 11 14 | 200 a.u. |
| 2'F-ANA at 1 3 5 6 9 11 | 52 a.u. |
| 2'F-ANA at 1 5 6 7 10 11 13 14 15 | 50.1 a.u. |
| 2'F-ANA at 1 3 4 6 10 11 12 13 | 65.1 a.u. |
| 2'F-ANA at 2 3 4 5 6 7 9 10 11 12 | 59.8 a.u. |

Single results of other studies — technique: cross-linking MS; matrix: cell fractions; with: DSSO
| Substance | partner | cross-linked residues |
| --- | --- | --- |
| STBD1 (Homo sapiens, UniProt O95210) | YWHAE (Homo sapiens, UniProt P62258) | S265 to K125 |
| SNRPA1 (Homo sapiens, UniProt P09661) | SF3A3 (Homo sapiens, UniProt Q12874) | K56 to K64 |
| CCDC14 (Homo sapiens, UniProt Q49A88) | DDX17 (Homo sapiens, UniProt Q92841) | K821 to K592 |
| TMED2 (Homo sapiens, UniProt Q15363) | TMED4 (Homo sapiens, UniProt Q7Z7H5) | T123 to K152 |

For quick reference, copied from above (series 3):
| Modification | mean fluorescence intensity |
| --- | --- |
| 2'F-ANA at 1 5 7 8 9 10 11 13 | 43.7 a.u. |
| 2'F-ANA at 1 2 4 5 6 7 9 11 14 | 200 a.u. |
| 2'F-ANA at 1 3 4 6 10 11 12 13 | 65.1 a.u. |
| 2'F-ANA at 2 3 4 5 6 7 9 10 11 12 | 59.8 a.u. |
| 2'F-ANA at 1 3 5 6 9 11 | 52 a.u. |
